Results of several laboratories.
Protocols differ between the studies behind these lines.

Compound = [N-]=[N+]=N[C@]1(CO)O[C@@H](n2ccc(N)nc2=O)[C@@H](F)[C@@H]1O; tested on = dengue virus 2; test = viral replication, high-content imaging; system = A549, New Guinea C; measurement = EC50; result = 50 nM
Compound = COc1ccnc(C(=O)N[C@@H](COC(=O)C(C)C)C(=O)O)c1O; tested on = Daphnia magna; test = immobilisation, semi-static water exposure; setting = 48 h; measurement = EC50; result = > 7.8 µg/mL
Compound = Nc1ccn(C[C@@H](CO)OCP(=O)(O)O)c(=O)n1; tested on = human alphaherpesvirus 1; test = viral replication; system = HEL, KOS; measurement = EC50; result = 2000 nM
Compound = CC(O)CC(=O)O (stereo not drawn); test = binding, equilibrium dialysis LC-MS; setting = 5 µM, thermostabilized A2AR-BRIL construct; how to read = baseline: no-protein control, direction not given; measurement = z-scored log2 fold change; result = -0.0853
Compound = COc1ccnc(C(=O)NC(CO)C(=O)O)c1O (racemic); tested on = Daphnia magna; test = immobilisation, semi-static water exposure; setting = 48 h; measurement = EC50; result = > 10 µg/mL
Compound = CC(C)(C)c1ccc(-c2ccc3ncc(-c4noc(C(F)(F)F)n4)cc3c2)cc1; tested on = Enterovirus D68; test = viral cytopathic effect; system = RD, STL-2014-12; measurement = EC50; result = > 200000 nM
Compound = Nc1ncnc2c1ncn2[C@@H]1O[C@H](CSCc2ccc3ccccc3c2)[C@@H](O)[C@H]1O; tested on = murine hepatitis virus; test = viral replication; system = A59; setting = 16 h; measurement = EC50; result = > 200000 nM
Compound = Cc1ccc(N(c2ccc(NC(=O)CN(C)c3ccccc3N3CCCC3=O)cc2)C(C)C)cc1; tested on = Plasmodium falciparum; test = parasite growth, SYBR Green; system = 3D7; setting = 72 h; measurement = EC50; result = 7.2 nM
Compound = CCOC(=O)c1cnc2ccc(-c3ccc(C(N)=O)cc3)cc2c1; tested on = Enterovirus D68; test = viral cytopathic effect; system = RD, STL-2014-12; measurement = EC50; result = > 200000 nM
Compound = COc1ccc(NC(=O)N2CCCCN3[C@H](CN(C)C)[C@H](c4ccc(C#Cc5ccccc5)cc4)[C@@H]3C2)cc1; tested on = Cryptosporidium parvum; test = parasite growth, high-content microscopy; system = Iowa (Bunch Grass Farm); setting = 10% FBS; measurement = EC50; result = < 73 nM
Compound = CC(C)C(=O)O[C@H]1[C@H](C)OC(=O)[C@@H]1Cc1ccccc1; tested on = Daphnia magna; test = immobilisation, semi-static water exposure; setting = 48 h; measurement = EC50; result = > 8.5 µg/mL
Compound = COc1ccc(NC(=O)N2CCCCN3C[C@H](c4ccc(C#Cc5ccccc5)cc4)[C@@H]3C2)cc1; tested on = Cryptosporidium parvum; test = parasite growth, high-content microscopy; system = Iowa (Bunch Grass Farm); setting = 1% FBS; measurement = EC50; result = 36 nM
Compound = Cc1cc(OC(C)C)ccc1C(=O)C(C)(C)NC(=O)c1sccc1C; tested on = Cercospora; test = mycelial growth; system = PSA medium; setting = 20 °C, suspension concentrate 400 g/L; measurement = EC50; result = 0.45 µg/mL
Compound = O=c1[nH]cnc2c1ncn2[C@@H]1O[C@H](COP(=O)(O)OP(=O)(O)OP(=O)(O)O)[C@@H](O)[C@H]1O; test = binding, equilibrium dialysis LC-MS; setting = 5 µM, thermostabilized A2AR-BRIL construct; how to read = baseline: no-protein control, direction not given; measurement = z-scored log2 fold change; result = -2.21
Compound = COc1ccnc(C(=O)NCCO)c1OCOC(=O)C(C)C; tested on = Daphnia magna; test = immobilisation, semi-static water exposure; setting = 48 h; measurement = EC50; result = 1.1 µg/mL

Some of these lines once more:
Compound = CC(C)C(=O)O[C@H]1[C@H](C)OC(=O)[C@@H]1Cc1ccccc1; tested on = Daphnia magna; test = immobilisation, semi-static water exposure; setting = 48 h; measurement = EC50; result = > 8.5 µg/mL
